Assay results of several laboratories.
± marks the error that the study gave.

For `O=NN1CCN(C2CCCC2)CC1`, “revertant colonies per plate” read 23.7 ± 5 (Salmonella typhimurium; mutagenicity, Ames plate incorporation; TA98; 150 µg/plate, 3 d, without S9, methanol).
For `CC(=O)N1CCC(C(=O)N2CCN3C(=O)c4cc(-c5ccccc5)ccc4NC(=O)C3C2)CC1` (centres unmarked), “fold increase in revertants” read 0.9 (Salmonella typhimurium; TA98; 158 µg/plate; baseline: vehicle).
The induction factor of `O=[N+]([O-])c1ccc(N2CCC(NCCC(O)c3ccc(F)c4ccccc34)CC2)c(C(F)(F)F)c1` (centres unmarked) is reported as 0.88 (Salmonella typhimurium; genotoxicity, SOS/umu test; TA1535/pSK1002; 0.008 mg/mL, 4 h, with S9, full range).
The viability of `N#C[C@@]1(n2ccc(N)nc2=O)O[C@H](CO)[C@@H](O)[C@H]1O` is reported as 93% (Salmonella typhimurium; TA1537; 5 µM, without S9).
`O=C(NCCN1CCCCC1)c1ccc(-c2ccc(N3CCSCC3)nc2)cc1` has a cytotoxicity efficacy of 0% (Vero-E6; CellTiter-Glo ATP; concentration not given, 72 h, retest 8-point duplicates; baseline: DMSO 0%, hyamine -100%, more negative, more toxic).
`O=[N+]([O-])c1ccc(NC2CCNCC2)c(C(F)(F)F)c1` has an induction factor of 0.6 (Salmonella typhimurium; genotoxicity, SOS/umu test; TA1535/pSK1002; 0.063 mg/mL, 4 h, without S9, full range).
For `CNC(=O)c1c(N(C)N=O)ncn1C`, “revertant colonies per plate” read 20.3 ± 3 (Salmonella typhimurium; mutagenicity, Ames plate incorporation; TA1535; 50 µg/plate, without S9, methanol).
`Cc1cc(C(=O)NC(C)(C)COc2cccc3c2C(N)=NS(=O)(=O)N3)cc(C)n1` gave a revertant ratio of 0.5 (Salmonella typhimurium; Ames test, confirmatory; TA1537; 5000 µg/plate; baseline: solvent control).
The cytotoxicity efficacy of `O=C(NCCCN1CCCCCC1)c1ccc2c(c1)sc1nc(-c3ccccc3)cn12` is reported as -33.3% (Vero-E6; CellTiter-Glo ATP; concentration not given, 72 h, second round 5-point; baseline: DMSO 0%, hyamine -100%, more negative, more toxic).
Under “revertant colonies per plate”, `COc1cccc(-c2n[nH]c(SCc3ccccn3)n2)c1OC` is recorded as 17 (Salmonella typhimurium; Ames test, preincubation; TA1535; 0.063 mg/plate, with rat liver S9).
Under “revertant colonies per plate”, `CN(CC(C)(C)C)N=O` is recorded as 9.3 ± 2 (Salmonella typhimurium; mutagenicity, Ames plate incorporation; TA1537; 150 µg/plate, without S9, methanol).
`Fc1ccc(C2=CCNCC2)cc1` has an induction factor of 2 (Salmonella typhimurium; SOS response, SOS/umu test; TA1535/pSK1002, TGA medium; 1 mg/mL, 4 h, with: 10% rat liver S9; baseline: untreated).
`CC(C)N(N=O)C(C)C` — result for “revertant colonies per plate”: 37.3 ± 6 (Salmonella typhimurium; mutagenicity, Ames plate incorporation; TA98; 5000 µg/plate, without S9, methanol).
`O=[N+]([O-])c1ccc(N2CCN(CCC(O)c3ccc(F)cc3)CC2)c(C(F)(F)F)c1` (centres unmarked) gave a survival of 98.2% (Salmonella typhimurium; SOS/umu test; TA1535/pSK1002; 0.001 mg/mL, 4 h, with S9, lower range).

For quick reference, copied from above:
For `CC(=O)N1CCC(C(=O)N2CCN3C(=O)c4cc(-c5ccccc5)ccc4NC(=O)C3C2)CC1` (centres unmarked), “fold increase in revertants” read 0.9 (Salmonella typhimurium; TA98; 158 µg/plate; baseline: vehicle).
